Experimental data collected from several papers.
± marks the error that the study gave.
Cnr2: Cannabinoid receptor 2 (Cnr2, Mus musculus, UniProt P47936)
Chain of UniProt P47936 (whole entry, looked up): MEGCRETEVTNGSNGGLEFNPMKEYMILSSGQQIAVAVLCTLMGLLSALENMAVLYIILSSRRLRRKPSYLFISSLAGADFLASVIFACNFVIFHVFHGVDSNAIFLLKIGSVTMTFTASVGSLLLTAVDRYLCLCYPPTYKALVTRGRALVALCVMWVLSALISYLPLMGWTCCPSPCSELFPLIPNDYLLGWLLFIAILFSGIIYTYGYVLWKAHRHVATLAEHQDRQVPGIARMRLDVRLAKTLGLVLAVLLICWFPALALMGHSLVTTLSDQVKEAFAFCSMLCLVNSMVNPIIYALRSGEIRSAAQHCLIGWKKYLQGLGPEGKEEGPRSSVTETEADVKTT
STING1 H232R: Stimulator of interferon genes protein (STING1, Homo sapiens, UniProt Q86WV6, H232R)
Chain of UniProt Q86WV6 (whole entry, unmodified, looked up): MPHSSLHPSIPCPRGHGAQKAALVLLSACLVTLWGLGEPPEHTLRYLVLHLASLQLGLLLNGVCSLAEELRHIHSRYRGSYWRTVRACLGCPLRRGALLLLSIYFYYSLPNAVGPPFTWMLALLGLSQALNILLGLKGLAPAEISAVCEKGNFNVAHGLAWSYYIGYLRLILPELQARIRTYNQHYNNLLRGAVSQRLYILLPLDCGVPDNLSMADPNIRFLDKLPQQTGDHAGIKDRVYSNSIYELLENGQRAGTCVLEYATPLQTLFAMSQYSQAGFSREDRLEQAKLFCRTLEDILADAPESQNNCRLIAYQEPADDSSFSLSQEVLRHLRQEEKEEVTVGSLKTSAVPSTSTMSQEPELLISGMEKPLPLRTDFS
Chain of UniProt A7T1N0 (whole entry, unmodified, looked up): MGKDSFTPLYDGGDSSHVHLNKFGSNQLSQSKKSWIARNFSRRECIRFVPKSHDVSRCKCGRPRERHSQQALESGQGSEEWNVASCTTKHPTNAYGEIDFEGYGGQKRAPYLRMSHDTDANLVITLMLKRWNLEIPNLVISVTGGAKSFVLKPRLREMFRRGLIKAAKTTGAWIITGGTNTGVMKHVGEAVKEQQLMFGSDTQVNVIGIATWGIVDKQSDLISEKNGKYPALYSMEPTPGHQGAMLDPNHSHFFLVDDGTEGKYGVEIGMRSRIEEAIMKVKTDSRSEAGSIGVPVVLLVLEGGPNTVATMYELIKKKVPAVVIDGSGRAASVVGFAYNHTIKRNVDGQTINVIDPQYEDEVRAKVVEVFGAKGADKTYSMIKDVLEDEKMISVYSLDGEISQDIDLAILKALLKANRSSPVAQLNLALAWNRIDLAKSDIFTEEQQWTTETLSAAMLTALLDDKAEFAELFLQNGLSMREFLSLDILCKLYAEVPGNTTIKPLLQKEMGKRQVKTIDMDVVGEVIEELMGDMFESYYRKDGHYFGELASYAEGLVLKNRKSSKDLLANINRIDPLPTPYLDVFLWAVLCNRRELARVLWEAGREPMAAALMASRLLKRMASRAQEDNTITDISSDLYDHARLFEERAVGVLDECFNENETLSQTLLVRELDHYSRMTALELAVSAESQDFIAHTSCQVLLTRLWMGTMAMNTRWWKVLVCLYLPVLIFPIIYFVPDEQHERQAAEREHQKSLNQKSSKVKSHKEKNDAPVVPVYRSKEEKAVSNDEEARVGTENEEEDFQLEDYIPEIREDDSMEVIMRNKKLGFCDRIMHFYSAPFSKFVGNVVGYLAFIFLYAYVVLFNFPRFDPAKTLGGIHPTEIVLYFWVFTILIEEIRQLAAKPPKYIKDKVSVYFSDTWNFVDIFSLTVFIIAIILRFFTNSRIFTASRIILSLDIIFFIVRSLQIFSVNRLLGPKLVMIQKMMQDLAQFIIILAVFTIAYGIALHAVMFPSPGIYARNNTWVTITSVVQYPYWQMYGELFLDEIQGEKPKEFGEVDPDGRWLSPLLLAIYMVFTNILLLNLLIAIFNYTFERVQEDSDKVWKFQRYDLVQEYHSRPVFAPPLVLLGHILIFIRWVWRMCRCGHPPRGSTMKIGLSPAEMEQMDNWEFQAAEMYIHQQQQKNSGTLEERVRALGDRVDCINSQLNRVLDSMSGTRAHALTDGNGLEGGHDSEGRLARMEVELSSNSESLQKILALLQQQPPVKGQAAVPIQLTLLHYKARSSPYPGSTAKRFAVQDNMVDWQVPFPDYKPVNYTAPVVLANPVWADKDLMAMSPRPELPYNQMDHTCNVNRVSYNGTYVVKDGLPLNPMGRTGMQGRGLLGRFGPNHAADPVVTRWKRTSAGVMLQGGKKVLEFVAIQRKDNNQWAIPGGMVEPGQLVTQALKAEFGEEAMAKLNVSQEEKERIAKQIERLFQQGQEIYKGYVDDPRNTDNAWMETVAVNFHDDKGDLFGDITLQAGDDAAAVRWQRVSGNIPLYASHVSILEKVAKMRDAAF
Chain of UniProt Q8NHB7 (whole entry, looked up): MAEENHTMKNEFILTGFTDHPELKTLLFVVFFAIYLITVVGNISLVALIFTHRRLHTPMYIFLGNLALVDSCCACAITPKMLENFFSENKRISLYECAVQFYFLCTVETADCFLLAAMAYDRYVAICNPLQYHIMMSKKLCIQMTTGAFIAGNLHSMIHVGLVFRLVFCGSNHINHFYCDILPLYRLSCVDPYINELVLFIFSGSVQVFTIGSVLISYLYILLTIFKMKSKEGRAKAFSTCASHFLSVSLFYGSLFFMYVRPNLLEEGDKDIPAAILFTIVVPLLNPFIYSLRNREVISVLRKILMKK
Chain of UniProt Q92633 (whole entry, looked up): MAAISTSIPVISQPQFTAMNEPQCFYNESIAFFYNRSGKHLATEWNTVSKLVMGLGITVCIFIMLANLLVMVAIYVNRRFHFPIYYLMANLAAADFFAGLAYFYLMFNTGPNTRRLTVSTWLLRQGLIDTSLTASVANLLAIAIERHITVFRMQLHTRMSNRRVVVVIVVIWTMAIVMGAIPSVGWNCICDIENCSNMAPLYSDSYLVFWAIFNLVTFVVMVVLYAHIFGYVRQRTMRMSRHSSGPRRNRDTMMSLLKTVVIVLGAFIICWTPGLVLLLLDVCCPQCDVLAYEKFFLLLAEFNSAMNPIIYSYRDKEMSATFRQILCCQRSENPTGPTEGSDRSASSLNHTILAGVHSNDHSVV
Chain of UniProt P32302 (whole entry, looked up): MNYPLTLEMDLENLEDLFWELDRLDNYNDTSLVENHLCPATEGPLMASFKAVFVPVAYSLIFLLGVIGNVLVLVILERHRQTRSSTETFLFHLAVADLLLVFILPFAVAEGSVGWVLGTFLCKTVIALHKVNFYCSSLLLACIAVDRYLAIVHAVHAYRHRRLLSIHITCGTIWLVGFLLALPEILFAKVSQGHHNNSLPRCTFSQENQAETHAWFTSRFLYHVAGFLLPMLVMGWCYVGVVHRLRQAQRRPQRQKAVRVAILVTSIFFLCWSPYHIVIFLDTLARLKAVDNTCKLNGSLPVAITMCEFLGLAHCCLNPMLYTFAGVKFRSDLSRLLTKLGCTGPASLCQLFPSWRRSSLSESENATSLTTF
Chain of UniProt Q92847 (whole entry, unmodified, looked up): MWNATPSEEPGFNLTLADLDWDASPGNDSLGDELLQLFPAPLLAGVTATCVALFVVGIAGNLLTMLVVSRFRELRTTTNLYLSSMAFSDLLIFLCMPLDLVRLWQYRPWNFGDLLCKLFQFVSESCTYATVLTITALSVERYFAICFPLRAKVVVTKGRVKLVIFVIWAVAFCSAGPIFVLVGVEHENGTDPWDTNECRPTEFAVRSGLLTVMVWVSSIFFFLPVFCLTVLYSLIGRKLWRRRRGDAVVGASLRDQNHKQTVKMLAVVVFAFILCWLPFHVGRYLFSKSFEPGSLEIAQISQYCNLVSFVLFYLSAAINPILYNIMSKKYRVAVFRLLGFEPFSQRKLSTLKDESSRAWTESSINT
Chain of UniProt P47871 (whole entry, looked up): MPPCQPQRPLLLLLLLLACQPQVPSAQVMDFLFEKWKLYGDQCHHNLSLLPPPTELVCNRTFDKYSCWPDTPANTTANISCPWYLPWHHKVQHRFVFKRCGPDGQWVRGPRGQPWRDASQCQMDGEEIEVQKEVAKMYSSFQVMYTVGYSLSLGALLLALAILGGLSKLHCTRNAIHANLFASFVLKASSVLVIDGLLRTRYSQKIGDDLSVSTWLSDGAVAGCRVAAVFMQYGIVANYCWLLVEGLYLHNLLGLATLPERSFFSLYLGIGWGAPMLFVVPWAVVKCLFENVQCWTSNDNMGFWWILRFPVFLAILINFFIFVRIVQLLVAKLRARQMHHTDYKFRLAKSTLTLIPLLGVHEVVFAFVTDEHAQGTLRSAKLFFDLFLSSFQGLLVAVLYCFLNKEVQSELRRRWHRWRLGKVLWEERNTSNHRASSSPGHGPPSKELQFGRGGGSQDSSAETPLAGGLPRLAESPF
Chain of UniProt O80920 (whole entry, looked up): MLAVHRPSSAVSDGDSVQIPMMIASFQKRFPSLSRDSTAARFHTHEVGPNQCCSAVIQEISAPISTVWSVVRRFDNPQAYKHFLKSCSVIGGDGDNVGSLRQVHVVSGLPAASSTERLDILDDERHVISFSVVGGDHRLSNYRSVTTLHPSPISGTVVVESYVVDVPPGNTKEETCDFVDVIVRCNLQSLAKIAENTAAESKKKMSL

For CCOC(=O)C(CC)(CCCSCCOCCOCCOCCNc1ccc([N+](=O)[O-])c2nonc12)NC(=O)c1ccc(C2CC2)c(Cc2ccc(F)cc2)n1 (centres unmarked), the EC50 was 0.074 µM (Cnr2; cAMP, agonist).
With O=C(NCC[C@H](NC(=O)c1cnc(-c2ccccc2)s1)c1nc2ccccc2[nH]1)c1ccc([N+](=O)[O-])o1 the EC50 was 11.1 µM (STING1 H232R; reporter gene, inhibitor; THP1-Dual KI-hSTING-R232; 24 h, 1 h preincubation, added: diABZI 500 nM).
O=C(Cc1ccc(OCc2ccccc2)cc1)NC1(C(=O)O)CCN(C(=O)c2ccc(-c3cccc(Cl)c3)cc2)CC1 gave an EC50 of over 10 µM (CXCR5 (Homo sapiens, UniProt P32302); cAMP, agonist, luciferase).
NC(=O)C[C@H](N)C(=O)N[C@H](Cc1c[nH]c2ccccc12)C(=O)N[C@@H](Cc1ccccc1)C(N)=O gave an EC50 of over 501 µM (uncharacterized protein (Aplysia californica, UniProt A0ABM0K1K5); IP1 accumulation, agonist; CHO-K1 cells, transfected; inactive, value is lower bound).
With Nc1ncnc2c1ncn2[C@@H]1O[C@H](COP(=O)(O)OP(=O)(O)OC[C@H]2OC(O)[C@H](O)[C@@H]2O)[C@@H](O)[C@H]1OP(=O)(O)O (some centres unmarked) the EC50 was 0.24 ± 0.02 µM (TRPM2 (Nematostella vectensis, UniProt A7T1N0, N628C); agonist).
CC(C)C[C@H](NC(=O)[C@H](Cc1ccccc1)NC(=O)[C@H](CCCNC(=N)N)NC(=O)[C@H](CCC(N)=O)NC(=O)[C@H](CC(C)C)NC(=O)C(C)(C)NC(=O)[C@H](C)NC(=O)[C@H](CCC(=O)O)NC(=O)[C@H](CCC(=O)O)NC(=O)[C@H](CCCCNC(=O)COCCOCCNC(=O)COCCOCCNC(=O)CC[C@H](NC(=O)CCCCCCCCCCCCCCCCCCC(=O)O)C(=O)O)NC(=O)[C@H](CC(C)C)NC(=O)[C@H](Cc1ccc(O)cc1)NC(=O)[C@H](CO)NC(=O)[C@@H](NC(=O)[C@H](CC(=O)O)NC(=O)[C@H](CO)NC(=O)[C@@H](NC(=O)[C@H](Cc1ccccc1)NC(=O)[C@@H](NC(=O)CNC(=O)[C@H](CCC(=O)O)NC(=O)C(C)(C)NC(=O)[C@@H](N)Cc1c[nH]cn1)[C@@H](C)O)[C@@H](C)O)C(C)C)C(=O)N[C@@H](CCC(=O)O)C(=O)N[C@@H](Cc1c[nH]cn1)C(=O)N[C@@H](CC(C)C)C(=O)N[C@H](C(N)=O)C(C)C has an EC50 of over 5 µM (Glucagon receptor (GCGR, Homo sapiens, UniProt P47871); agonist; cross-reactivity).
With O=C(N[C@@H](CCCCNC(=O)c1ccc([N+](=O)[O-])o1)c1nc2ccccc2[nH]1)c1ccc(-c2cnccn2)cc1 the EC50 was 5.4 µM (STING1 H232R; reporter gene, inhibitor; THP1-Dual KI-hSTING-R232; 24 h, 1 h preincubation, added: diABZI 500 nM).
CCOC(=O)C(CC)(CCCSCCCCCCNC(=O)OC(C)(C)C)NC(=O)c1ccc(C2CC2)c(Cc2ccc(F)cc2)n1 (centres unmarked) has an EC50 of 0.078 µM (Cnr2; cAMP, agonist).
With O=C(NC[C@@H](Cc1ccc(F)cc1)N1CCC(O)(C(F)(F)F)CC1)C1(c2ccc(Cl)cc2)CCCC1 the EC50 was 0.11 µM (TRPA1 (Homo sapiens, UniProt O75762, M953V)).
CCOC(=O)C(CC)(CCCSCCOCCOCCOCCOCCNc1ccc([N+](=O)[O-])c2nonc12)NC(=O)c1ccc(C2CC2)c(Cc2ccc(F)cc2)n1 (centres unmarked) has an EC50 of 0.192 µM (Cnr2; cAMP, agonist).
With [N-]=[N+]=Nc1c(C2CC2)cc(CC(=O)NC2(C(=O)O)CCCCC2)cc1C1CC1 the EC50 was 29.2 ± 2.64 µM (PYL4 (Arabidopsis thaliana, UniProt O80920); phosphatase activity recovery, antagonist; added: HAB1, ABA 5000 nM).
For CCCCCCCC/C=C\CCCCCCCC(=O)OCC(O)COP(=O)(O)O (centres unmarked), the EC50 was 0.0178 µM (LPAR1 (Homo sapiens, UniProt Q92633); G protein activation, agonist, BRET).
O=C(NCC[C@H](NCc1ccc(-c2ccccc2)cc1)c1nc2ccccc2[nH]1)c1ccc([N+](=O)[O-])o1 has an EC50 of 6.1 µM (STING1 H232R; reporter gene, inhibitor; THP1-Dual KI-hSTING-R232; 24 h, 1 h preincubation, added: diABZI 500 nM).
COc1ccc(C(=O)c2c(C(=O)NCCCN(C)C)oc3ccc(Cl)cc3c2=O)cc1OC gave an EC50 of 0.107 µM (GHSR (Homo sapiens, UniProt Q92847, R199A); intracellular Ca2+, agonist; HEK293T transiently transfected).
O=C(C#Cc1ccccc1)N[C@@H](CCNC(=O)c1ccc([N+](=O)[O-])o1)c1nc2ccccc2[nH]1 has an EC50 of 8.7 µM (STING1 H232R; reporter gene, inhibitor; THP1-Dual KI-hSTING-R232; 24 h, 1 h preincubation, added: diABZI 500 nM).
For CCOC(=O)C(CC)(CCCSCCOCCOCCNC(=O)OC(C)(C)C)NC(=O)c1ccc(C2CC2)c(Cc2ccc(F)cc2)n1 (racemic), the EC50 was 0.131 µM (Cnr2; cAMP, agonist).
O=C(N[C@@H](CCNC(=O)c1ccc([N+](=O)[O-])o1)c1nc2ccccc2[nH]1)c1noc(-c2cc(F)ccc2F)n1 gave an EC50 of 11.4 µM (STING1 H232R; reporter gene, inhibitor; THP1-Dual KI-hSTING-R232; 24 h, 1 h preincubation, added: diABZI 500 nM).
O=S(=O)(c1ccc2c(c1)OCO2)n1cc(CCCCN2CCC(=C(c3ccc(F)c(F)c3)c3ccc(F)c(F)c3)CC2)nn1 gave an EC50 of 0.619 µM (PFKL (Homo sapiens, UniProt P17858); enzyme activity, activator, ADP-Glo; 1).
COC1=C(C)OC(C)C1=O (centres unmarked) gave an EC50 of 475 µM (OR5K1 (Homo sapiens, UniProt Q8NHB7); cAMP luminescence, agonist; HEK293).
The EC50 of C#Cc1ccc(C(=O)N[C@@H](CCNC(=O)c2ccc([N+](=O)[O-])o2)c2nc3ccccc3[nH]2)cc1 is reported as 13.6 µM (STING1 H232R; reporter gene, inhibitor; THP1-Dual KI-hSTING-R232; 24 h, 1 h preincubation, added: diABZI 500 nM).

Repeated from above:
With O=C(N[C@@H](CCCCNC(=O)c1ccc([N+](=O)[O-])o1)c1nc2ccccc2[nH]1)c1ccc(-c2cnccn2)cc1 the EC50 was 5.4 µM (STING1 H232R; reporter gene, inhibitor; THP1-Dual KI-hSTING-R232; 24 h, 1 h preincubation, added: diABZI 500 nM).
CCOC(=O)C(CC)(CCCSCCCCCCNC(=O)OC(C)(C)C)NC(=O)c1ccc(C2CC2)c(Cc2ccc(F)cc2)n1 (centres unmarked) has an EC50 of 0.078 µM (Cnr2; cAMP, agonist).
